Measurements gathered from unrelated publications.
Parts stem from different laboratories: compare values within a part only. Positions count from the first letter of the parent shown.

Block 1
Target: CCND2, cyclin fold, Cln2 fusion (human)
Technique: yeast growth competition, sequencing
Medium: yeast
Setting: weak parent motif
Reference: not given
Reading: higher = stronger binding
Quantity: normalised enrichment score
Starting sequence: CDKN1A docking peptide (human); SKACRRLFGPVDS; partner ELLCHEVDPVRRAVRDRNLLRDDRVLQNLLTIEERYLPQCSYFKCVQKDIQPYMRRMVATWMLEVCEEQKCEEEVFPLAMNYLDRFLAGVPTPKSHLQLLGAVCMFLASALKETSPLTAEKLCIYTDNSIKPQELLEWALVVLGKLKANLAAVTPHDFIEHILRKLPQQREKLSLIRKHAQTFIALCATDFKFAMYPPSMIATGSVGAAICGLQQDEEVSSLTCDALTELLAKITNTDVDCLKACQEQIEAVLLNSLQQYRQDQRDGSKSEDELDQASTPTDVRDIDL
SKACRRLCGPVDS [F8C]: 0.108
SKACRRLFGPVKS [D12K]: -0.302
SSACRRLFGPVDS [K2S]: 0.44
SKACARLFGPVDS [R5A]: 0.0294
SKACRRLFTPVDS [G9T]: 0.34
SKACRRLFGPVVS [D12V]: 0.135
SKAWRRLFGPVDS [C4W]: 0.0634
SKANRRLFGPVDS [C4N]: -0.0682
SKAQRRLFGPVDS [C4Q]: 0.384
SKACRRLFGPQDS [V11Q]: 0.906
SKACRRLFGPSDS [V11S]: 0.441
SKACRRLFGWVDS [P10W]: -0.278
SKACRRLFGPVWS [D12W]: 0.0338
SKACRRLFGPVES [D12E]: -0.0595
SKARRRLFGPVDS [C4R]: 0.154
SKACRRLFGPWDS [V11W]: 0.73
SKAKRRLFGPVDS [C4K]: -0.211
SKACRRLIGPVDS [F8I]: 0.762
SKACRRLFMPVDS [G9M]: 0.569
SKACRMLFGPVDS [R6M]: 0.348
SWACRRLFGPVDS [K2W]: -0.189
SKACRRLFGPEDS [V11E]: 1.18
SKACRRLFGPVFS [D12F]: 0.323
SKACRRLFGYVDS [P10Y]: 0.142
SEACRRLFGPVDS [K2E]: 0.328

Block 2
Target: Sal-like protein 4, full length isoform A (SALL4, Homo sapiens, UniProt Q9UJQ4, residues 1-1053)
Chain of UniProt Q9UJQ4 (whole entry, looked up): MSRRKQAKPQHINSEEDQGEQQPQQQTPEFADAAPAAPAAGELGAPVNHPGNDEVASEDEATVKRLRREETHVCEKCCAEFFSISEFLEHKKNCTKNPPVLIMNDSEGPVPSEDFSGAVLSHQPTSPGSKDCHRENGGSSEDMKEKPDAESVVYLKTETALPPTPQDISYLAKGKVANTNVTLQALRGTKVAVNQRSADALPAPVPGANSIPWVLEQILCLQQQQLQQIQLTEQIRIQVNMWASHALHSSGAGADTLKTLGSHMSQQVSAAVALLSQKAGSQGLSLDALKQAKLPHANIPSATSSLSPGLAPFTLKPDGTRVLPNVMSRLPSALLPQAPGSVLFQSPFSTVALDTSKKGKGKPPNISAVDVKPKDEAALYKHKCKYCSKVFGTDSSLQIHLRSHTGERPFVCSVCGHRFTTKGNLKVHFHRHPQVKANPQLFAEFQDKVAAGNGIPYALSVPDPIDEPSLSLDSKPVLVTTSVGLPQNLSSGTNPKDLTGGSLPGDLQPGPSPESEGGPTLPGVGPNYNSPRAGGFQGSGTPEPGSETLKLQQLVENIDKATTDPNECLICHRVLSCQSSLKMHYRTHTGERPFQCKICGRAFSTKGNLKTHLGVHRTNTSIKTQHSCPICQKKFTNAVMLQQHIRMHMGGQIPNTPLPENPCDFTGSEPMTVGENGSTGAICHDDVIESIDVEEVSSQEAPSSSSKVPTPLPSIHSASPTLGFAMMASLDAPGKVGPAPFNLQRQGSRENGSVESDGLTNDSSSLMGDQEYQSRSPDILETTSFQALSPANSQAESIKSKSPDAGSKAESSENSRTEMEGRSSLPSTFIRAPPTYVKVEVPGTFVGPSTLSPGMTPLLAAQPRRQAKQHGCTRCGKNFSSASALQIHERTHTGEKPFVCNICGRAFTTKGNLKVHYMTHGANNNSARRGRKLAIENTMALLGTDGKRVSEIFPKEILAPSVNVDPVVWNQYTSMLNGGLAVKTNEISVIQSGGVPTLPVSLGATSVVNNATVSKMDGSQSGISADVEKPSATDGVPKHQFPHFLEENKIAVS
Technique: universal PBM
Form: double-stranded DNA, one strand shown
Medium: in vitro
Concentration: 600 nM
Setting: 8-mer, flanks averaged, mean of replicates
Reading: higher = stronger binding
Quantity: E-score
CGCACTTA: 0.023
ACGTCGTC: -0.0845
AGGTTATG: 0.241
CTTGGGGA: 0.0168
CTGAACTA: 0.00542
GACTGTAA: 0.126
CGTAGGCA: -0.14
AGGGCAAG: -0.0968
AATTTACG: 0.169
ACAGTAGA: 0.266
ACTTAACC: 0.183
TCGCCCAA: -0.0793
CGCGTGTC: -0.241
CATGGACC: -0.187
CCGTCAGG: -0.253
CGACTCGC: -0.127

Block 3
Target: Myc proto-oncogene protein, bHLH-zipper, MAX partner unstated (MYC, Homo sapiens, UniProt P01106, residues 368-449)
Chain of UniProt P01106 (368-449, looked up): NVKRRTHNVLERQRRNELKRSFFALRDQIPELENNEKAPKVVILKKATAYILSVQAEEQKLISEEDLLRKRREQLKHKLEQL
Technique: protein-binding microarray
Form: double-stranded DNA, one strand shown
Medium: in vitro
Concentration: not given
Setting: k-mer, scored over probes, only values ≥0.25
Reading: higher = stronger binding
Quantity: E-score
ATGCCGTA: 0.295
CGGGGAAC: 0.282
ACACGCCA: 0.32
CACGTGTA: 0.494
CGTGGGGA: 0.299
CGCGACAC: 0.26
GCGCGGGA: 0.277
AGCACGTC: 0.271
AGCGCGCG: 0.282
ACCACGCG: 0.484
GCCGCACC: 0.331
GCCCTCCC: 0.316
GAGCACAC: 0.377
CCCACACG: 0.374
ACCACGAA: 0.267
ACGCGCAT: 0.332
AGGCACGC: 0.375
CGTGGCGA: 0.419

Block 4
Target: Prothrombin, mature alpha-thrombin (F2, Homo sapiens, UniProt P00734)
Technique: aptamer microarray, sandwich
Form: DNA with 2'F-ANA
Medium: in vitro
Concentration: 200 nM
Setting: whole 15-mer aptamer, many near background
Together with: Cy3 exosite-II aptamer, 400 nM
Reading: higher = stronger binding
Quantity: mean fluorescence intensity
Sequence: GGTTGGTGTGGTTGG
2'F-ANA at 3 8 10 12 13 14: 430 a.u.
2'F-ANA at 4 5 7 9 10: 46.5 a.u.
2'F-ANA at 3 6 7 8 10 11 14: 437 a.u.
2'F-ANA at 4 6 7 8 9 10 12 14: 107 a.u.
2'F-ANA at 1 2 3 6 9 10 11 14: 59.2 a.u.
2'F-ANA at 1 2 7 8 10 13 14: 89 a.u.
2'F-ANA at 1 2 3 4 5 6 8 10 11 12 13 14 15: 48.6 a.u.
2'F-ANA at 1 3 5 6 8 9 11 12 13 15: 80.2 a.u.
2'F-ANA at 1 3 4 5 8 9 11 12 15: 88.8 a.u.
2'F-ANA at 3 4 5 7 8 10: 56.9 a.u.
2'F-ANA at 1 2 4 7 11 13 14: 46.2 a.u.
2'F-ANA at 5 6 9 13: 53.5 a.u.
2'F-ANA at 1 4 6 9 11 13 14: 46.5 a.u.
2'F-ANA at 5 10 11 12 13 14 15: 47.4 a.u.
2'F-ANA at 2 4 7 9 10 11 12 14: 66.8 a.u.
2'F-ANA at 1 2 5 7 15: 56.6 a.u.
2'F-ANA at 1 6 8 10 11 12 15: 63.5 a.u.
2'F-ANA at 4 5 6 7 8 9 10 11 12 13: 47.7 a.u.
2'F-ANA at 2 3 6 7 8 11 12 14: 440 a.u.
2'F-ANA at 2 6 7 8 9 10 14: 92.7 a.u.
2'F-ANA at 1 2 6 7 8 10 13: 55.1 a.u.
2'F-ANA at 4 5 8 9 10 12 15: 50.5 a.u.
2'F-ANA at 1 2 4 7 8 10 13: 52 a.u.
2'F-ANA at 2 5 8 11 12 14 15: 53.6 a.u.
2'F-ANA at 2 6 7 8 9 10 14 15: 84.5 a.u.

Block 5
Target: Histone acetyltransferase KAT6A, winged helix 1, GST fusion (KAT6A, Homo sapiens, UniProt Q92794, residues 1-85)
Technique: protein binding microarray
Form: double-stranded DNA, one strand shown
Medium: in vitro
Concentration: not given
Setting: 8-mer, flanks averaged, mean of 2 arrays, mostly near background
Reference: not given
Reading: higher = stronger binding
Quantity: E-score
Residues (chain): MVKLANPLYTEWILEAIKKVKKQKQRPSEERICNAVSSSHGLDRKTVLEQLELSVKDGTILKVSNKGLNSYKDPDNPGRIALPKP
CGACGTGA: 0.0478
ACTATGCA: -0.167
TAACATGA: 0.0186
AAAAGGAC: -0.162
ATCGGAAG: -0.0459
CCAGATAG: -0.32
AAGCCTGC: -0.0204
AAGCACTC: 0.017
GTAGCTAC: 0.00853
CGTGACAC: 0.0803
CCATCACG: 0.0571
GGCCACCC: 0.0964
AAGAGGAG: -0.147
CCACTAAC: -0.181
GTAGGTTA: -0.0123
AAAATTGC: 0.076
GTCGTAGA: -0.146

Block 6
Target: Phosphate system positive regulatory protein PHO4, full length, GST-tagged (PHO4, Saccharomyces cerevisiae, UniProt P07270, residues 1-312)
Technique: competition protein-binding microarray
Form: double-stranded DNA, one strand shown
Medium: in vitro
Concentration: 2 µM
Setting: whole 60-bp probe, lowest competitor level
Together with: Cbf1 competitor, 0.05 µM
Reading: higher = stronger binding
Quantity: fluorescence intensity
All sequences stand within: … GTCTTGATTCGCTTGACGCTGCTG
Residues (chain): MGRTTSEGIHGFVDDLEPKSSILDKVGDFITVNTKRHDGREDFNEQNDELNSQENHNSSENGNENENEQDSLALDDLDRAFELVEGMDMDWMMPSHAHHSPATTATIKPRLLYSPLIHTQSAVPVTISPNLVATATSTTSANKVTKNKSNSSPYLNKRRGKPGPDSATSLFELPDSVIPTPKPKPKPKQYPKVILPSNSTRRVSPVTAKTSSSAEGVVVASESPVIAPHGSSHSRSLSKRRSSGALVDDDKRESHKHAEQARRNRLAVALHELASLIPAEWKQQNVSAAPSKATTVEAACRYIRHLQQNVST
CTTTGTCTCCATTGCGGCGTGCTAATTCTTCTACTA: 8030 a.u.
CCAAGTTAGAAGAAACATGTGACGCCATTTCTGCGG: 8680 a.u.
CATACCCAACCTTGTTTCGTGGGTGAAGATATTTGT: 4860 a.u.
GCCGGCCTTTATACCCACGGGTGCATCTTCAAAGAC: 8760 a.u.
CTTCCAAGGTGAGGACACGGGTTCGATTCTCGTACC: 9270 a.u.
TCCAGGGAAACAAGCCAGGCGCAGGCACCTTAATAA: 3280 a.u.
GTCTTGTCTCATTGTCACGCGACTTTCCCCACTTCA: 6960 a.u.
AAGATAAAAAACGGAAACGTGCTTTTTTAATTTAAT: 15500 a.u.
CCCGGGGCGTCGGCGCACGCGGTCCCCACCGGCCGG: 10700 a.u.
CATACCCAACCTTGTCGCGTGGGTGAAGATATTTGT: 10900 a.u.
AAAGCGGTAATTTGGAGTGTGGGTGCAGATATCTAT: 5390 a.u.
AATCTGTGTCAGTTCCACGTTCGTAATGGCAACCCG: 10100 a.u.
ACCTAGAGAAACCAAAACGTGATGGCCTGCTGGGAT: 13100 a.u.
TGAGTTCTCCTTCATTGCGTGATGGATCATCAAGTG: 4650 a.u.
GGCAAAAGCTTACTTTCCGTGCCGAAGGTGTTGTTA: 4830 a.u.
CCGATCTAGCGTAGTCACCTGATAACAGGAACATAG: 4920 a.u.
CTTCCGCGCCGTATGTGTGTGTGTCCAAGGAGTTTG: 5810 a.u.
GTCTTGTCTCATTGTCTAGTGGGTGTCCCCACTTCA: 4400 a.u.
ATGAAACGGAGCAGTCATATGATCAAAATACAGAAT: 4520 a.u.
TGAACCCTTACTTACTGCGTGACTCGGTTGATTTAG: 5860 a.u.
